# Measurements collected from several papers.
# A part holds a random share of what one study measured. Substitutions count along the parent as printed.

# Series 1 — technique: Sort-seq; measured: YFP reporter; matrix: E. coli; notes: PhoQ-PhoP variant library; with: 10 µM Mg2+; baseline: high Mg2+ state; direction: higher = stronger signaling
# Molecule: PhoQ, residues 284 288 289 292 302 303 AANNSF
target,fold induction
"PhoP, residues 12 14 15 18 19 HHYTI (Escherichia coli, UniProt P23836)",2.37
"PhoP, residues 12 14 15 18 19 AYFRS (Escherichia coli, UniProt P23836)",19.5
"PhoP, residues 12 14 15 18 19 SFCSL (Escherichia coli, UniProt P23836)",17.7

# Series 2 — technique: competition protein-binding microarray; molecule type: double-stranded DNA, one strand shown; matrix: in vitro; tested at: 2 µM; with: Pho4 competitor, 0.05 µM; direction: higher = stronger binding
# Target: Centromere-binding protein 1, full length, His-tagged (CBF1, Saccharomyces cerevisiae, UniProt P17106, residues 1-351)
# Chain of UniProt P17106 (whole entry, looked up): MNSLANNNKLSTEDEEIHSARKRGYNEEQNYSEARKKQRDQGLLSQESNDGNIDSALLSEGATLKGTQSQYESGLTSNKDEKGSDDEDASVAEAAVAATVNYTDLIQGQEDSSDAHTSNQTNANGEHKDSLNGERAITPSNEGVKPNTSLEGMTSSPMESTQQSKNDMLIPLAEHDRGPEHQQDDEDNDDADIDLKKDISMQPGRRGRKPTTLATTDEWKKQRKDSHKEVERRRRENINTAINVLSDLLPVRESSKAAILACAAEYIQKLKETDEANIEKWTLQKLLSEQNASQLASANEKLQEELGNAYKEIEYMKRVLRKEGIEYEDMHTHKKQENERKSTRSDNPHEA
# Notes: whole 60-bp probe, lowest competitor level
Strand,fluorescence intensity
GGATTACTGTAATTGCTCGTGTTGGATTGAGCGAAAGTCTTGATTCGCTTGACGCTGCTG,96.9 a.u.
CTTTCCCGATCTTGAATTGTGGGTGTAGCACATTTGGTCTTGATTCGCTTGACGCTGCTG,92 a.u.
CTGCCATTGCTGAAGCTCGTGCTTTCGAAGAAAACTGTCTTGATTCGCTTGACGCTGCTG,112 a.u.
AAATTACTAAGTTGTCACTGCACTTACCCCGTATGAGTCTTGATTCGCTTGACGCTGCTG,87.2 a.u.
CATACCCAACCTTGCTGGGTGGGTGAAGATATTTGTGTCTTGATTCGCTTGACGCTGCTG,71.1 a.u.
CTAACGAAGGTTTGTCCCGTGGGTGACAAGCCAAGTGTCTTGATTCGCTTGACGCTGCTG,89.2 a.u.
GTCTTGTCTCATTGTTTCGTGGGTGTCCCCACTTCAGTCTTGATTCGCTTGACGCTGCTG,100 a.u.
CTTAGGAATGATTAAAGCATGACAATCAGCAGTAGGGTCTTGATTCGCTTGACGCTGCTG,126 a.u.
TTTGGCGCAAATTACCATGTGAGCGAGCGGGAATAAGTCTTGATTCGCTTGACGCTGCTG,210 a.u.
TCGATGGCCATGTTACACATGGACATAAGTGCTTCCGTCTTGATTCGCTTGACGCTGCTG,85 a.u.
CTACGTACAAGTGTATACGTGCCAGTATTTGGACGCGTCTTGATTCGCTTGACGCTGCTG,119 a.u.

# Series 3 — target: CCNB2, cyclin fold, Cln2 fusion (human); technique: yeast growth competition, sequencing; matrix: yeast; notes: strong parent motif; baseline: not given; direction: higher = stronger binding
# Parent: E2F1 docking peptide (human); PPVKRRLDFETDH; partner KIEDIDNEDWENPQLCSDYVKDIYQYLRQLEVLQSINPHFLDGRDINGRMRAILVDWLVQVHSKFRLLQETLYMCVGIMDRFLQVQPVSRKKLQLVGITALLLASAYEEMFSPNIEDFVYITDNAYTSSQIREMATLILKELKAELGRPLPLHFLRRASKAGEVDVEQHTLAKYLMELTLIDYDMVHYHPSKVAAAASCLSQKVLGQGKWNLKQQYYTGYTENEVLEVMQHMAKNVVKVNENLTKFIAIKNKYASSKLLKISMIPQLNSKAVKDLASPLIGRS
Variant,normalised enrichment score
R6P,-0.254
V3L,3.19
D12T,3.41
D8W,2.34
K4S,2.23
L7F,0.749
F9N,0.148
T11L,3.63
L7A,0.389
R6C,2.59
R5Q,2.01

# Series 4 — technique: universal PBM; molecule type: double-stranded DNA, one strand shown; matrix: in vitro; tested at: not given; direction: higher = stronger binding
# Target: Sal-like protein 4, full length isoform B (SALL4, Homo sapiens, UniProt Q9UJQ4-2, residues 1-616)
# Notes: 8-mer, flanks averaged, mean of replicates
# Target sequence (chain): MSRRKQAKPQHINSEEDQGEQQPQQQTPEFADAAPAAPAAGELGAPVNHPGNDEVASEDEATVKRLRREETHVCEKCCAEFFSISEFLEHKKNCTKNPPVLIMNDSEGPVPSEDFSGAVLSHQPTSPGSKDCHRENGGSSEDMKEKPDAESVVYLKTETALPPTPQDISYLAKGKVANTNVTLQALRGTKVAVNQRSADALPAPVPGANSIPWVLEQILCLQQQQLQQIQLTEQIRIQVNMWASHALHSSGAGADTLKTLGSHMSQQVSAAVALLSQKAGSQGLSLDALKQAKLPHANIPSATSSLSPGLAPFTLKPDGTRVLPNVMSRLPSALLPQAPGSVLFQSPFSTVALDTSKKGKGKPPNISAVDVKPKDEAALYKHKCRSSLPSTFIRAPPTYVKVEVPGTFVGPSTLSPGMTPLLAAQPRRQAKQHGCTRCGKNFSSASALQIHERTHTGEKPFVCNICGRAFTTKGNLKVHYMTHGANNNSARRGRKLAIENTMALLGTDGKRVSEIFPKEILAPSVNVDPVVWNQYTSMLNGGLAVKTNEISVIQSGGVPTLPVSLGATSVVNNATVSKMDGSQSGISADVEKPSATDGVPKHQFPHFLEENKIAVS
Strand,E-score
CACCACCC,-0.217
ACTCACGC,-0.215
CCATGGTA,-0.0687
AAGTGCTA,0.204
ATTGGTAG,0.224
AGGTATTA,0.255
ACGGTATG,0.0397
CACCGGGG,-0.403
ATTGGCTA,0.11
CAGCAGCC,-0.227
CATTTGGC,-0.0435
ACTTGGAA,0.0116
AACGCCTG,-0.0664

# For quick reference, copied from above (series 4):
Strand,E-score
ATTGGTAG,0.224
AGGTATTA,0.255
ACGGTATG,0.0397
CACCGGGG,-0.403
